Experimental data gathered from unrelated publications.
Numbered parts are unrelated; each lists some results of a single study.
UniProt P23975, sequence (whole entry, looked up): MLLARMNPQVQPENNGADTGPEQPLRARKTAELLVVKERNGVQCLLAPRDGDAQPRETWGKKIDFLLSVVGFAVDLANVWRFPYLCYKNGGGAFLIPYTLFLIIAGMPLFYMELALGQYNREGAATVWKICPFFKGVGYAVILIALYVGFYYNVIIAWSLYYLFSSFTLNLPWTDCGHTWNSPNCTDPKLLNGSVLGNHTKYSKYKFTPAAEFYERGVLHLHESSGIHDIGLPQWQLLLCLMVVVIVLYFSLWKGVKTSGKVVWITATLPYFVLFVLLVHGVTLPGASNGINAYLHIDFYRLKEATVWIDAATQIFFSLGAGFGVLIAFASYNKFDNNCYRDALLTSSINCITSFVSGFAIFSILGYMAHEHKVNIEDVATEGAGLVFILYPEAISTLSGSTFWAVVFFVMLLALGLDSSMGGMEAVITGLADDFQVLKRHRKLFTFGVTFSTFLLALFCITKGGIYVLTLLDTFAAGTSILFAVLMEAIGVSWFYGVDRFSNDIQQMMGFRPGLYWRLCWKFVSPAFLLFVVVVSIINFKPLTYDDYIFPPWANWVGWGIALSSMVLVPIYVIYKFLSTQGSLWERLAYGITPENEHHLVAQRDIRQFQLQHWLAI
UniProt P21673, sequence (whole entry, looked up): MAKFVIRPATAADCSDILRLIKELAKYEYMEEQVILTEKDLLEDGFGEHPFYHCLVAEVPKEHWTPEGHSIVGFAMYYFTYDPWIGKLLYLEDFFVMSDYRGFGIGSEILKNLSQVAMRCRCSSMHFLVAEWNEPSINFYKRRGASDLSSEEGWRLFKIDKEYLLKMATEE
UniProt P62344, sequence (whole entry, looked up): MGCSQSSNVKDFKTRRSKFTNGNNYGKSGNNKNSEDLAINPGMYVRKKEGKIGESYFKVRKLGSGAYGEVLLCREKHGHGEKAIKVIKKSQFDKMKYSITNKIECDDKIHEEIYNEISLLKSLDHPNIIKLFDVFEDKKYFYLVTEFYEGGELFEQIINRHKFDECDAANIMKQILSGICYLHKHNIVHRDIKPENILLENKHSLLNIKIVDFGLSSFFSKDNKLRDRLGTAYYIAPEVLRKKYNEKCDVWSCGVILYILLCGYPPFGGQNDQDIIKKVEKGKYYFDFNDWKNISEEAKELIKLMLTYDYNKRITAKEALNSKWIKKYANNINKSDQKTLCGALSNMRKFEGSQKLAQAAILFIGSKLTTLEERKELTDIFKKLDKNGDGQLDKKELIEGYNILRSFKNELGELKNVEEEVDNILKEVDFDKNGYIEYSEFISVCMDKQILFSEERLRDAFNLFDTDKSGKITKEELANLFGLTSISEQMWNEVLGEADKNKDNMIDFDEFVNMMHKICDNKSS
UniProt P9WI81, sequence (whole entry, looked up): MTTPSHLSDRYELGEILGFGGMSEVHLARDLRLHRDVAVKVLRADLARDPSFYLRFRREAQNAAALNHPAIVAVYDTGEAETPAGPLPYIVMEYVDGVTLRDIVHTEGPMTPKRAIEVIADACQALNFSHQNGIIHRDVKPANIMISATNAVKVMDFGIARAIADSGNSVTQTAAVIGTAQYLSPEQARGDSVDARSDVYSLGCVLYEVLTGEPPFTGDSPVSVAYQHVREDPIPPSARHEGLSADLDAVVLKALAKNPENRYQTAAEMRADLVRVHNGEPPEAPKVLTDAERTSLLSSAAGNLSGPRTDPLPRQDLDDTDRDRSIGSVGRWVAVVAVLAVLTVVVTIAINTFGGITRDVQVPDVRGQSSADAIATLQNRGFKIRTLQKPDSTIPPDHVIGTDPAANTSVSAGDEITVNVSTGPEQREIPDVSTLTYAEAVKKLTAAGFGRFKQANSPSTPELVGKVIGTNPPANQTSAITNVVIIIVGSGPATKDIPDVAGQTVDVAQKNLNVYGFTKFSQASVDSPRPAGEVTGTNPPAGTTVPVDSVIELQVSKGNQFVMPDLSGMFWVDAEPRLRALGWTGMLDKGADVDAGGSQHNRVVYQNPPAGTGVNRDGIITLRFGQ

Study 1 — cell line: mouse MPNST tumor cells; technique: high-content immunofluorescence imaging; item: nuclear SOX9; concentration: 10 µM; time: 12 h; notes: mean of 2 replicates; baseline: DMSO control; reading: higher = more nuclear SOX9
Compound	nuclear SOX9 intensity
CC(=O)Nc1ccc(Cc2ccc(NC(C)=O)cc2)cc1	93.1 % of DMSO
O=C1CN=C(c2cccc(Br)c2)c2oc3ccccc3c2N1	127 % of DMSO
C[C@]12CC[C@@H]3c4ccc(OC(=O)N(CCCl)CCCl)cc4CC[C@H]3[C@@H]1CC[C@@H]2O	121 % of DMSO
CCC1(CC)C(=O)C=CNC1=O	98.2 % of DMSO
CCCC[N+]1(C)C2CC(OC(=O)C(CO)c3ccccc3)CC1C1OC12 (stereo not drawn)	93.8 % of DMSO

Study 2 — organism: Sarcocystis neurona; read-out: parasite growth; concentration: 10 µM
Structure (SMILES)	inhibition
O=C1Nc2ccc(Cl)cc2C(c2ccccc2Cl)=NC1O (stereo not drawn)	-25.3%
COc1ccc2[nH]cc(CCN)c2c1	-26.4%
CN1C(=O)CN=C(c2ccccc2)c2cc(Cl)ccc21	31%

Study 3 — cell line: HEK-293T/ACE2; concentration: 10 µM; time: 16 h; baseline: vehicle
SMILES	viability [%]
C[C@H](CCC(=O)O)[C@H]1CC[C@H]2[C@@H]3[C@H](O)C[C@@H]4C[C@H](O)CC[C@]4(C)[C@H]3CC[C@]12C	100
Nc1ncnc2c1ncn2[C@@H]1O[C@H](CO)[C@@H](O)[C@H]1O	99.7
Oc1ncnc2[nH]ncc12	102
COC(=O)[C@H]1[C@H]2C[C@@H]3c4[nH]c5cc(OC)ccc5c4CCN3C[C@H]2C[C@@H](OC(=O)c2cc(OC)c(OC)c(OC)c2)[C@@H]1OC	101
N[C@@H](C(=O)N[C@@H]1C(=O)N2C(C(=O)O)=C(Cl)CS[C@H]12)c1ccccc1	100
CN1C(C(=O)Nc2ccccn2)=C(O)c2ccccc2S1(=O)=O	97.3
Cc1nnc(NS(=O)(=O)c2ccc(N)cc2)s1	98.8
O=C(O)c1ccccc1O	101
O=C1NC(=O)C(c2ccccc2)(c2ccccc2)N1	96.6
NC[C@H]1O[C@H](O[C@H]2[C@H](O)[C@@H](O[C@H]3O[C@H](CO)[C@@H](O)[C@H](N)[C@H]3O)[C@H](N)C[C@@H]2N)[C@H](O)[C@@H](O)[C@@H]1O	102
CC[C@H](C)C(=O)O[C@H]1C[C@H](O)C=C2C=C[C@H](C)[C@H](CC[C@@H](O)C[C@@H](O)CC(=O)O)[C@H]21	97.4
C[N+]1(C)CCCC(OC(=O)C(O)(c2ccccc2)c2ccccc2)C1 (stereo not drawn)	102
CCN(CC)CCOC(=O)c1ccc(N)cc1	97.7
Clc1ccc(CCC(Cn2ccnc2)Sc2c(Cl)cccc2Cl)cc1 (stereo not drawn)	95.4
CC12CC3CC(C)(C1)CC(N)(C3)C2	100
CC(=O)Oc1ccccc1C(=O)Nc1ncc([N+](=O)[O-])s1	77.7
CC(C)(C)C(=O)OCOP(=O)(COCCn1cnc2c(N)ncnc21)OCOC(=O)C(C)(C)C	73.7
C=CC1=C(C(=O)O)N2C(=O)[C@@H](NC(=O)/C(=N\OCC(=O)O)c3csc(N)n3)[C@H]2SC1	97.8

Study 4 — read-out: enzyme activity; mode: inhibitor; concentration: 10 µM
Target: Calcium/calmodulin-dependent protein kinase type II subunit alpha (CAMK2A, Homo sapiens, UniProt Q9UQM7)
UniProt Q9UQM7, sequence (whole entry, looked up): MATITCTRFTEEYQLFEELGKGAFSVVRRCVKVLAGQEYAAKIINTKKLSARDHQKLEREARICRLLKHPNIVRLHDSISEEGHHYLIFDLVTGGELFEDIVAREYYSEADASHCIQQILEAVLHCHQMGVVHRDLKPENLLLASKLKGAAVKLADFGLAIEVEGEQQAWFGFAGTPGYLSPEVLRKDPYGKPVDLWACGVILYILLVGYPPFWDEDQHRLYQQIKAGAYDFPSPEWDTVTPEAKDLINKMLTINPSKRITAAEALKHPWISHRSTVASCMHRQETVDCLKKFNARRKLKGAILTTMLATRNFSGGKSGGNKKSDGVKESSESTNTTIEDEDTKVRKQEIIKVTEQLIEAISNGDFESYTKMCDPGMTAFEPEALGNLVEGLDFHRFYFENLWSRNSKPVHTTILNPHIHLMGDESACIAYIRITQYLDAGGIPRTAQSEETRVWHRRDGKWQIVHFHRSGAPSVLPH
SMILES	inhibition [%]
C/C=C1/CN2[C@@H]3C[C@@]45c6ccccc6N[C@]4(O3)[C@@H]2C[C@@H]1[C@H]5C(=O)OC	6
CC(C)=CCCC1=CC(=O)c2c(O)ccc(O)c2C1=O	11
CN(CC(=O)O)C(=N)NP(=O)(O)O	-11
CCc1ccc(O)c2cc3c(nc12)-c1cc2c(c(=O)n1C3)COC(=O)[C@]2(O)CC	32

Other studies, line by line
Compound	target or system	assay	test system	conditions	how to read	quantity	result
CN(C)C(=O)c1sc2nc(N3CCC(S(C)(=O)=O)CC3)cc(C(F)(F)F)c2c1N	Sodium-dependent noradrenaline transporter (SLC6A2, Homo sapiens, UniProt P23975)	ligand displacement	–	10 µM	–	inhibition	1.7%
COc1cc(-c2cc(=O)c3c(O)cc(O)cc3o2)cc(OC)c1O	Diamine acetyltransferase 1 (Homo sapiens, UniProt P21673)	inhibitor	–	10 µM	baseline: control	remaining activity	91.7%
FC(F)(F)c1ccc2c(c1)nc(-c1cccnc1)n2C1CC1	Serine/threonine-protein kinase PknB (pknB, Mycobacterium tuberculosis, UniProt P9WI81)	cell-free assay, competition with immobilised ligand	–	1 µM	–	remaining binding	100%
[N-]=[N+]=CC(=O)CC[C@H](N)C(=O)O	–	–	C57BL/6 CES1-/- mouse, blood	intravenous, 1 mg/kg equivalent	–	haematocrit	19.8%
CN(C(=O)c1ccccc1)c1cc(N(C)c2ccc3c(c2)CCc2ccc(C(=O)NCCN4CCOCC4)cc2C3=O)ccc1F	Calcium-dependent protein kinase 1 (CDPK1, Plasmodium falciparum, UniProt P62344)	cell-free assay, competition with immobilised ligand	–	1 µM	–	remaining binding	100%
COc1cc(=O)n(-c2ccccc2)cc1C(=O)N1CCC2(CC1)OCCO2	–	–	mouse, microsomes or S9	2 µM, 0.5 h	–	remaining compound	77.8%
